Published values gathered from unrelated publications.
Numbered parts are unrelated; each lists some results of a single study.
Chain of UniProt Q15418 (whole entry, looked up): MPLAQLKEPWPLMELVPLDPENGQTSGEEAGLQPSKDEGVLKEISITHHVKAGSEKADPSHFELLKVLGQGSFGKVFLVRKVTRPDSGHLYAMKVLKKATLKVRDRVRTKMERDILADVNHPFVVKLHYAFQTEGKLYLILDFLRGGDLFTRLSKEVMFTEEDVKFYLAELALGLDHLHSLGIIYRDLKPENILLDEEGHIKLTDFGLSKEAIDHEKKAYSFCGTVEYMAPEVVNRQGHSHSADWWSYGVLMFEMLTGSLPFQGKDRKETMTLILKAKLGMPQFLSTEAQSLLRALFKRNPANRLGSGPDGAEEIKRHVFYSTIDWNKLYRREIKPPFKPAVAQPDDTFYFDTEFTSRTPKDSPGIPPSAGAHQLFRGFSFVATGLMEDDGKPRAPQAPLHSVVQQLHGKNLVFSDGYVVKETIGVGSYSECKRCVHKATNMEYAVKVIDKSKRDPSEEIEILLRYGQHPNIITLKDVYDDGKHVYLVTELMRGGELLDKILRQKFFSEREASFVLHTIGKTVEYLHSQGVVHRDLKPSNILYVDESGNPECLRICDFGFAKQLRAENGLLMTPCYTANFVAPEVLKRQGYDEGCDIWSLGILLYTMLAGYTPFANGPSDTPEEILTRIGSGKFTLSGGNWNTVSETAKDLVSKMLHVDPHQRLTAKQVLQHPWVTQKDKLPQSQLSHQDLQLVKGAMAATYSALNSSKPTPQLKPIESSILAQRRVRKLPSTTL
Chain of UniProt Q02763 (whole entry, looked up): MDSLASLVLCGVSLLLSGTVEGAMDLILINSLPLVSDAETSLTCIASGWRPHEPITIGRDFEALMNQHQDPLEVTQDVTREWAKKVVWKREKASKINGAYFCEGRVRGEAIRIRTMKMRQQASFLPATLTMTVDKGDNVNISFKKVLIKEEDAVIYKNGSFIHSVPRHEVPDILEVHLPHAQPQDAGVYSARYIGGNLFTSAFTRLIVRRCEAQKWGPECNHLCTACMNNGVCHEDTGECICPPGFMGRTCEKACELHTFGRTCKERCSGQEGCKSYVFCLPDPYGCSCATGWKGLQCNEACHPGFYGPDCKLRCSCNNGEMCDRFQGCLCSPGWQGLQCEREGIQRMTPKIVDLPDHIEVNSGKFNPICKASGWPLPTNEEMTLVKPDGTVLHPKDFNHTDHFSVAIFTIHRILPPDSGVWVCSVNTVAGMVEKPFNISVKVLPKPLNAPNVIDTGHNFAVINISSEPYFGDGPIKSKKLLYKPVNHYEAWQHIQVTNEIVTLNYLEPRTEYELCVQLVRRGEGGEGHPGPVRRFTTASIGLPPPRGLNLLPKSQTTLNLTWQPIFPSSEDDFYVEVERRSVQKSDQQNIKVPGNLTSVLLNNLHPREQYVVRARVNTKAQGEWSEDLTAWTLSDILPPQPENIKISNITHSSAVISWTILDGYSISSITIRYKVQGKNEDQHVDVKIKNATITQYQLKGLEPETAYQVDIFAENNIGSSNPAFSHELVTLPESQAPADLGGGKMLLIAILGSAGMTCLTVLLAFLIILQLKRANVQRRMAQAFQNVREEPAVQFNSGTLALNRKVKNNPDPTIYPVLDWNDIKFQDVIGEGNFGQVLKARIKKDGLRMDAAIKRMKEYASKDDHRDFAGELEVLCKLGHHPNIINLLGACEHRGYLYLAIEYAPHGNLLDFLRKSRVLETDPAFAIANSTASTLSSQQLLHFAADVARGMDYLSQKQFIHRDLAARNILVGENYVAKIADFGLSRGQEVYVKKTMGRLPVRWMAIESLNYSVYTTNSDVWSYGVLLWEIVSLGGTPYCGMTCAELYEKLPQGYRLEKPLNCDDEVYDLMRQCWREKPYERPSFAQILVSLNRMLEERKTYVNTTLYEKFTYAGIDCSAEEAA
Chain of UniProt Q8IYT8 (whole entry, looked up): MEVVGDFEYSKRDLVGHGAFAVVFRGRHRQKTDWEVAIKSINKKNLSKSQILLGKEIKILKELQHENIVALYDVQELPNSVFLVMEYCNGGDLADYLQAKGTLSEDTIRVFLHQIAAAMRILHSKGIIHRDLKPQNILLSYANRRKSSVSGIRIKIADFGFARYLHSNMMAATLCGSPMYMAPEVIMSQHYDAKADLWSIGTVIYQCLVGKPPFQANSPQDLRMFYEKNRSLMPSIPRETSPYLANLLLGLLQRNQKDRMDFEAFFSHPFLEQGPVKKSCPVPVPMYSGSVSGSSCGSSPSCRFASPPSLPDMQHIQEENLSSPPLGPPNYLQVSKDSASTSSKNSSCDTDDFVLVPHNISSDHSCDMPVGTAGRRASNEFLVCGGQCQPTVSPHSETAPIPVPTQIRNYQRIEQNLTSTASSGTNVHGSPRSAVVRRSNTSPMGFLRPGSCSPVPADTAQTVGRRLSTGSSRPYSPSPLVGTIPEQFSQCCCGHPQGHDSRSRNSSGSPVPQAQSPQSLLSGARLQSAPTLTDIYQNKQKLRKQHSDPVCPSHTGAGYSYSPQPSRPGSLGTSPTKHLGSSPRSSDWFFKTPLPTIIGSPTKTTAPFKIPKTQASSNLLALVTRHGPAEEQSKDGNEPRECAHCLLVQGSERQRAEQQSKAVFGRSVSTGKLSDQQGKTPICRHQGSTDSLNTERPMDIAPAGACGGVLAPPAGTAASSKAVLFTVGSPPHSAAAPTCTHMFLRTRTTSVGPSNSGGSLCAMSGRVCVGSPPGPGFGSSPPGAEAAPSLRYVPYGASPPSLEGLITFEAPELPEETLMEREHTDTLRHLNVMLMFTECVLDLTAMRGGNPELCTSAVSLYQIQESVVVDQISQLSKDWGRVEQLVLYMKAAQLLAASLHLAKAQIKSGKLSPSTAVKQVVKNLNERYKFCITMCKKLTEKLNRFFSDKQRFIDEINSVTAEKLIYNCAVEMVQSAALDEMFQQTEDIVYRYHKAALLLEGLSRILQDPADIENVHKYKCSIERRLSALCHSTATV
Chain of UniProt P35916 (whole entry, unmodified, looked up): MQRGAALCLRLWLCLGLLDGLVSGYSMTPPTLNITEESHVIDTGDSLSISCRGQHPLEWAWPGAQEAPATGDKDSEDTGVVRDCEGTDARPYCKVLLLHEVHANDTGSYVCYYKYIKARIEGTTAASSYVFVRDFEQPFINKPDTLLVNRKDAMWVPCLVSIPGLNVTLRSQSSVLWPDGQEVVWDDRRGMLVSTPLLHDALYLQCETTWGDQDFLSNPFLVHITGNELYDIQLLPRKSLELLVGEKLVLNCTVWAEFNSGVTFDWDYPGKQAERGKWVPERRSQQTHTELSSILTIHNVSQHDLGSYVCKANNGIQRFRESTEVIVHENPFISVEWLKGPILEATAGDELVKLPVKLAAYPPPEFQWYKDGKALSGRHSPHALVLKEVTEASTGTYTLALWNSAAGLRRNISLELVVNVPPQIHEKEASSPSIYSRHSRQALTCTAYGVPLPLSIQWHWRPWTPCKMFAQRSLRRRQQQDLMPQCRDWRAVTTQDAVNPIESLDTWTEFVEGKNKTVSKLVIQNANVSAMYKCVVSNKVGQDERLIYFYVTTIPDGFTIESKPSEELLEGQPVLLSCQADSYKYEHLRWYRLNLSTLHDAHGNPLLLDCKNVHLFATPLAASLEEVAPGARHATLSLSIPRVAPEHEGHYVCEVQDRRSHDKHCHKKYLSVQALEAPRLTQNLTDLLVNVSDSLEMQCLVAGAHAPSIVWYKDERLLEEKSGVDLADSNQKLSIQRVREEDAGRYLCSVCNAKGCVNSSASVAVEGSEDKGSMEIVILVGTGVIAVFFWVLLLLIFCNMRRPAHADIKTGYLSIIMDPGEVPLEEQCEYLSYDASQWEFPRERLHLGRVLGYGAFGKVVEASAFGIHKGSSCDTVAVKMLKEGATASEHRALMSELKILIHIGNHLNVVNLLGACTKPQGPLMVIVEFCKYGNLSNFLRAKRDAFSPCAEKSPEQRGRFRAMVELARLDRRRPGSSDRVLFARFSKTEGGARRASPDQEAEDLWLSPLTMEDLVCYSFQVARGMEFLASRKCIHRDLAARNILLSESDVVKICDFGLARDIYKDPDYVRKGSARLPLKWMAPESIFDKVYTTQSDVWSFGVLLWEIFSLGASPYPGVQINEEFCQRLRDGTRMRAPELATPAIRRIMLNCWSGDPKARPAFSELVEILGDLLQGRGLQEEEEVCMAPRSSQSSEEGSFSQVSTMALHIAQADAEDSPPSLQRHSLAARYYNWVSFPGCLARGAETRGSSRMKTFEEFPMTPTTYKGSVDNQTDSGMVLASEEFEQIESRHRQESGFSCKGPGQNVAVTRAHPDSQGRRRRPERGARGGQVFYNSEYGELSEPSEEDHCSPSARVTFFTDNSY
Chain of UniProt Q9UHD2 (whole entry, looked up): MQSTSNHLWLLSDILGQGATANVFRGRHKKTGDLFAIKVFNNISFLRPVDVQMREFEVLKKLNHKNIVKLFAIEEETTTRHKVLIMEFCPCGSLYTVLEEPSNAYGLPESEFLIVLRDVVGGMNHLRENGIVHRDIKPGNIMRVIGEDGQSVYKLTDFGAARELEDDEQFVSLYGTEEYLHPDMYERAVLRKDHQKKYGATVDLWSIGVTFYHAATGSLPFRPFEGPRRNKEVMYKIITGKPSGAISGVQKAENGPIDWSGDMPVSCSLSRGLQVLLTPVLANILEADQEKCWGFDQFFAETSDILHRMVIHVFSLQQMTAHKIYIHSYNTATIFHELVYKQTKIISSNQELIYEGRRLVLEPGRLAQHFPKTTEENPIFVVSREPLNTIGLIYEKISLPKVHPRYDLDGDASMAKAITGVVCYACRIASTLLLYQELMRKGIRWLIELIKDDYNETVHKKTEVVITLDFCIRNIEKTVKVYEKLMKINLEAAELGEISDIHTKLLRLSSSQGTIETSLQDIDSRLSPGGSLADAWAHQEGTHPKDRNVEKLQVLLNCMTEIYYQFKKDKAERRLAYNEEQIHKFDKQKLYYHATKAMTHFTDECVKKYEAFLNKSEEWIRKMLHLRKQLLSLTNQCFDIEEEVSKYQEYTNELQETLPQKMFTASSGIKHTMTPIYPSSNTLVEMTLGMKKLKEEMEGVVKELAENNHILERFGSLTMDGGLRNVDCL

Study 1 — cell line: A-375; concentration: 100 µM; time: 18 h; endpoint: viability
COc1ccc([C@@H]2Sc3ccccc3N(CCN(C)C)C(=O)[C@@H]2OC(C)=O)cc1: 90.7%
CC1=C(/C=C/C(C)=C/C=C/C(C)=C/C=C/C=C(C)/C=C/C=C(C)/C=C/C2=C(C)C(=O)[C@@H](O)CC2(C)C)C(C)(C)C[C@H](O)C1=O: 94.8%
Cc1cccc(C)c1NC(=O)c1ccccc1C(=O)O: 99%
CC[C@]1(O)C[C@@H]2CN(CCc3c([nH]c4ccccc34)[C@@](C(=O)OC)(c3cc4c(cc3OC)N(C)[C@H]3[C@@](O)(C(=O)OC)[C@H](OC(C)=O)[C@]5(CC)C=CCN6CC[C@]43[C@@H]65)C2)C1: 22%
CC(C)c1cc2c(cc1S(=O)(=O)O)[C@@]1(C)CCC[C@@](C)(C(=O)O)[C@@H]1CC2: 82.3%
CC(C)(C)NCC(O)COc1cccc2c1CCC(=O)N2 (stereo not drawn): 93.9%
CC[C@H]1OC(=O)[C@@](C)(F)C(=O)[C@H](C)[C@@H](O[C@@H]2O[C@H](C)C[C@H](N(C)C)[C@H]2O)[C@](C)(OC)C[C@@H](C)C(=O)[C@H](C)[C@H]2N(CCCCn3cc(-c4cccc(N)c4)nn3)C(=O)O[C@]12C: 11.6%
C[C@@H]1O[C@@H](OC[C@H]2O[C@@H](Oc3c(-c4ccc(OCCO)c(OCCO)c4)oc4cc(OCCO)cc(O)c4c3=O)[C@H](O)[C@@H](O)[C@@H]2O)[C@H](O)[C@H](O)[C@H]1O: 72.6%

Study 2 — action: inhibitor; concentration: 5 µM; reference: vehicle; endpoint: log2 fold change
Compound: O=C1NC(=O)C(c2cn(-c3ccccc3)nc2-c2ccc(F)cc2)N1 (stereo not drawn)
Non-receptor tyrosine-protein kinase TYK2, with CDC37 (TYK2, Homo sapiens, UniProt P29597); kinase activity; cell-based kinome screen: -0.327
PRKAA1 (Homo sapiens, UniProt Q13131); kinase–CDC37 interaction; kinome plate 1@E05: -0.25
CLK3 (Homo sapiens, UniProt P49761); human cells: -0.707
Ephrin type-B receptor 1, with CDC37 (EPHB1, Homo sapiens, UniProt P54762); cell-based kinome screen; human cells: -0.016
RPS6KA1 (Homo sapiens, UniProt Q15418); kinase-CDC37 interaction; human cells: -0.086
IGF1R (Homo sapiens, UniProt P08069); cell-based kinome screen; human cells: -0.512
PRKG2 (Homo sapiens, UniProt Q13237); kinase activity; cell-based kinome screen: 0.006
FLT4 (Homo sapiens, UniProt P35916, H1035R); cell-based translocation; human cells; hereditary lymphedema type 1A variant: -0.29

Study 3 — observed: enzyme activity; action: inhibitor; concentration: 0.5 µM; reference: control; endpoint: remaining activity
Compound: O=C1NC(=O)C(c2cn(CCCO)c3ncccc23)=C1c1cnccn1
EPHA3 (Homo sapiens, UniProt P29320): 102%
NEK1 (Homo sapiens, UniProt Q96PY6): 91.9%
FRK (Homo sapiens, UniProt P42685): 88.3%
MAP3K5 (Homo sapiens, UniProt Q99683): 88.9%
TAOK2 (Homo sapiens, UniProt Q9UL54): 88.1%
MAPK3 (Homo sapiens, UniProt P27361): 94.5%
ACVR1B (Homo sapiens, UniProt P36896): 100%
FGFR1 (Homo sapiens, UniProt P11362): 81.2%
CSNK1G3 (Homo sapiens, UniProt Q9Y6M4): 107%
LCK (Homo sapiens, UniProt P06239): 95.8%
JAK3 (Homo sapiens, UniProt P52333): 134%
GSK3B (Homo sapiens, UniProt P49841): 25.2%
NEK6 (Homo sapiens, UniProt Q9HC98): 94.2%
FGFR3 (Homo sapiens, UniProt P22607): 78.7%
GRK7 (Homo sapiens, UniProt Q8WTQ7): 118%
CSNK1G2 (Homo sapiens, UniProt P78368): 66%
RPS6KA2 (Homo sapiens, UniProt Q15349): 73.2%
ULK2 (Homo sapiens, UniProt Q8IYT8): 96.7%
MST1R (Homo sapiens, UniProt Q04912): 96.1%
MAPKAPK2 (Homo sapiens, UniProt P49137): 91%
MERTK (Homo sapiens, UniProt Q12866): 78.7%
TEK (Homo sapiens, UniProt Q02763): 103%
TBK1 (Homo sapiens, UniProt Q9UHD2): 98.8%
MAP2K2 (Homo sapiens, UniProt P36507): 90.3%
MAP3K14 (Homo sapiens, UniProt Q99558): 78.1%

Study 4 — organism: Sarcocystis neurona; observed: parasite activity; concentration: 10 µM; time: 96 h; endpoint: activity class
OC[C@H]1O[C@@H](Oc2cc(O)cc(/C=C/c3ccc(O)cc3)c2)[C@H](O)[C@@H](O)[C@@H]1O: inactive
CCOC(=O)[C@H](CCc1ccccc1)N[C@@H](C)C(=O)N1Cc2ccccc2C[C@H]1C(=O)O: inactive
CN(C)[C@@H]1C(O)=C(C(N)=O)C(=O)[C@@]2(O)C(O)=C3C(=O)c4c(O)ccc(Cl)c4[C@@H](O)[C@H]3C[C@@H]12: inactive
O=C1CC[C@@H](C(=O)N2CSC[C@H]2C(=O)O)N1: inactive
CC[C@@]1(O)C(=O)OCc2c1cc1n(c2=O)Cc2cc3c(CN(C)C)c(O)ccc3nc2-1: inactive

Study 5 — observed: cell-free assay; method: competition with immobilised ligand; concentration: 1 µM; endpoint: remaining binding
Compound: O=C(N1CCS(=O)(=O)CC1)N1C[C@H](c2ccc(OC(F)(F)F)cc2)C[C@H](c2nc(C3CC3)no2)C1
EPHA5 (Homo sapiens, UniProt P54756): 96%
EGFR (Homo sapiens, UniProt P00533, L861Q): 68%
Ribosomal protein S6 kinase alpha-1, N-terminal kinase domain (RPS6KA1, Homo sapiens, UniProt Q15418): 100%
PIK3C2G (Homo sapiens, UniProt O75747): 93%
Tyrosine-protein kinase ABL1, non-phosphorylated (ABL1, Homo sapiens, UniProt P00519, H396P): 100%
STK32C (Homo sapiens, UniProt Q86UX6): 93%
PRPF4B (Homo sapiens, UniProt Q13523): 97%
ULK1 (Homo sapiens, UniProt O75385): 100%

Excerpt of the above (study 2):
Non-receptor tyrosine-protein kinase TYK2, with CDC37 (TYK2, Homo sapiens, UniProt P29597); kinase activity; cell-based kinome screen: -0.327
PRKAA1 (Homo sapiens, UniProt Q13131); kinase–CDC37 interaction; kinome plate 1@E05: -0.25
CLK3 (Homo sapiens, UniProt P49761); human cells: -0.707
Ephrin type-B receptor 1, with CDC37 (EPHB1, Homo sapiens, UniProt P54762); cell-based kinome screen; human cells: -0.016
RPS6KA1 (Homo sapiens, UniProt Q15418); kinase-CDC37 interaction; human cells: -0.086
IGF1R (Homo sapiens, UniProt P08069); cell-based kinome screen; human cells: -0.512
PRKG2 (Homo sapiens, UniProt Q13237); kinase activity; cell-based kinome screen: 0.006
